Published values gathered from unrelated publications.
Parts stem from different laboratories: compare values within a part only. Substitutions count along the parent as printed.

Block 1 — technique: DHFR PCA, deep sequencing; matrix: yeast; together with: (+)-ABA 4.8 µM; baseline: wild-type fitted maximum; reading: higher = stronger binding; measurement: relative binding score
Target: ABI1, truncated, D143A, DHFR fusion (Arabidopsis thaliana)
Setting: methotrexate growth selection, single substitutions
Starting sequence: PYL1, truncated, DHFR fusion (Arabidopsis thaliana); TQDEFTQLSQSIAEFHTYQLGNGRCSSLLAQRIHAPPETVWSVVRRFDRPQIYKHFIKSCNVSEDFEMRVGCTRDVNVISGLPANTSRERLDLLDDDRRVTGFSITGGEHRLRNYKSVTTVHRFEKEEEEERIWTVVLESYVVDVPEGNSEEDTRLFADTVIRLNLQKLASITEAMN
H122A: -6.64%
F103E: -18.3%
L20N: 67.4%
L93D: 2.16%
R45T: 5.39%
S26G: 61%
I57F: -6.89%
N85G: 64.9%
E4R: 42.3%
D3C: 60.1%
V145H: -0.326%
Y18T: 34.6%
Y53I: -6.84%
R99S: 9.26%
T39V: 77.7%
I133A: 92.3%
D96Y: 8.62%
S104M: 4.44%
K126M: 86.8%
S150C: 46.3%
C60K: -5.04%
K58Y: 32.2%
H34A: 77.2%

Block 2 — target: UBE2V1 UBC core domain (UniProt Q13404); technique: yeast two-hybrid; matrix: yeast; setting: mostly zero background; baseline: not given; reading: higher = stronger interaction; measurement: lacZ reporter activity
B1: RNF149 RING domain (UniProt Q8NC42); chain EKGIDVDAENCAVCIENFKVKDIIRILPCKHIFHRICIDPWLLDHRTCPMCKLDVIKALGYW
B2: RFPL2 RING domain (UniProt O75678); chain MAALFQEASSCPVCSDYLEKPMSLECGCAVCLKCINSLQKEPHGEDLLCCCSSMVSRKNKIRR
B3: TRIM38 RING domain (UniProt O00635); chain STKKMMEEATCSICLSLMTNPVSINCGHSYCHLCITDFFKNPSQKQLRQETFCCPQCRAPFHMDSLRP
B4: RNF43 RING domain (UniProt Q68DV7); chain SGSSCSSAPVCAICLEEFSEGQELRVISCLHEFHRNCVDPWLHQHRTCPLCMFNITEGDSFS
B5: ANKIB1 RING domain (UniProt Q9P2G1); chain LSPGDLDTSLCDICMCSISVFEDPVDMPCGHDFCRGCWESFLNLKIQEGEAHNIFCPAYDCFQLVPVDIIE
B6: RNF14 RING domain (UniProt Q9UBS8); chain IKCFNSKLFLCSICFCEKLGSECMYFLECRHVYCKACLKDYFEIQIRDGQVQCLNCPEPKCPSVATPGQVK
B7: TRIM3 RING domain (UniProt O75382); chain VQPMDKQFLVCSICLDRYQCPKVLPCLHTFCERCLQNYIPAQSLTLSCPVCRQTSILPEQGV
B8: TRIM52 RING domain (UniProt Q96A61); chain PMQTLQEEAVCAICLDYFKDPVSISCGHNFCRGCVTQLWSKEDEEDQNEEEDEWEEEEDEEAV
B9: RNF5 RING domain (UniProt Q99942); chain ERGGAGATFECNICLETAREAVVSVCGHLYCWPCLHQWLETRPERQECPVCKAGISREKVVP
B10: RNF4 RING domain (UniProt P78317); chain TGLRPSGTVSCPICMDGYSEIVQNGRLIVSTECGHVFCSQCLRDSLKNANTCPTCRKKINHKRYHP
B11: TRIM35 RING domain (UniProt Q9UPQ4); chain PSRSFKEELLCAVCYDPFRDAVTLRCGHNFCRGCVSRCWEVQVSPTCPVCKDRASPADLRT
B12: PEX2 RING domain (UniProt P28328); chain DNTLATSGKECALCGEWPTMPHTIGCEHIFCYFCAKSSFLFDVYFTCPKCGTEVHSLQPLK
Target sequence (chain): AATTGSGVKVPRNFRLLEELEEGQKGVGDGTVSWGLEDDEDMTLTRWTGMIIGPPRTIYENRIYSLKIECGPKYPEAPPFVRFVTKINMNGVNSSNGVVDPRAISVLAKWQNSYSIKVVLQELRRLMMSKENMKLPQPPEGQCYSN
QLQDEEDDSLCRICMDAVIDCVLLECGHMVTCTKCGKRMSECPICRQYVVRAVHVF (RNF34 RING domain (UniProt Q969K3)): 0
KIKDLNEHIVCCLCAGYFVDATTITECLHTFCKSCIVKYLQTSKYCPMCNIKIHETQPLL (PCGF1 RING domain (UniProt Q9BSM1)): 0
B1 (RNF149 RING domain): 0
B2 (RFPL2 RING domain): 0
B3 (TRIM38 RING domain): 0
B4 (RNF43 RING domain): 0
SYEDKSNDFVCPICFDMIEEAYMTKCGHSFCYKCIHQSLEDNNRCPKCNYVVDNIDHLY (COP1 RING domain (UniProt Q8NHY2)): 0
B5 (ANKIB1 RING domain): 0
LKQVSIRENCCSLCCDEVADTQLKPCGHSDLCMDCALQLETCPLCRKEIVSRIRQI (RSPRY1 RING domain (UniProt Q96DX4)): 0
B6 (RNF14 RING domain): 0
B7 (TRIM3 RING domain): 0
B8 (TRIM52 RING domain): 0
B9 (RNF5 RING domain): 0
B10 (RNF4 RING domain): 0
B11 (TRIM35 RING domain): 0
B12 (PEX2 RING domain): 0

Block 3 — technique: RNA Bind-n-Seq; form: RNA; matrix: in vitro; concentration: 200 nM; setting: whole 134-nt RNA, ends assumed; together with: 150 mM LiCl; baseline: input library; reading: higher = stronger binding; measurement: log2 enrichment; library: 7-deaza-guanosine replaces G
Target: Ras GTPase-activating protein-binding protein 1, full length (G3BP1, Homo sapiens, UniProt Q13283)
UniProt Q13283, sequence (whole entry, looked up): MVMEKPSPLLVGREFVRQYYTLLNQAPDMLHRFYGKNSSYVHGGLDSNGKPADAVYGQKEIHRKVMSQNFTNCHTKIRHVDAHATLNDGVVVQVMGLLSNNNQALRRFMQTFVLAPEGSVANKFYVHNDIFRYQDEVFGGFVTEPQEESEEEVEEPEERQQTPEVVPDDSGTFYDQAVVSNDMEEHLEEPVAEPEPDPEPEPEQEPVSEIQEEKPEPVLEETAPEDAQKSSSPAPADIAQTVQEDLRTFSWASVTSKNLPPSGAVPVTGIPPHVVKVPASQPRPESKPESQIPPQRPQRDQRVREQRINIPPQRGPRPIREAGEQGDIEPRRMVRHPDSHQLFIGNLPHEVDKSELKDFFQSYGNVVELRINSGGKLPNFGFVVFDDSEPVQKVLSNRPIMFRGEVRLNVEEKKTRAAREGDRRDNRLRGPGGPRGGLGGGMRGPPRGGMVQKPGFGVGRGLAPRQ
All sequences stand within: GGGAGUUCUACAGUCCGACGAUC … UGGAAUUCUCGGGUGUCAAGG
CUCAAGUCCUGUGCUACACAUCGUAUGUACCGAAUCGGUGGUUUUUGGAAAGGAAAGUAUUAUGUUACGCCGUUCGGAUCUGCACUUCCA: 0.648
CCCAUCAUGUUCAGAGGUGAGGUCCGUCUGAAUGUCGAAGAGAAGAAGACUCGAGCUGCCAGGGAAGGCGACCGACGAGAUAAUCGCCUU: -2.26
CAAGUCCUGUGCUACACAUCGUAUGUACCGAAUCGGGGAGGGGAAAGGGGUGGGGAAAGUAUUAUGUUACGCCGUUCGGAUCUGCACUUC: 0.118
UAACUUUAGAGGAGGAUCUGAUGGAUAUGGCAGUGGACGUGGCUUUGGGGAUGGCUAUAAUGGGUAUGGAGGAGGACCUGGAGGUGGCAA: -0.227
UGGGAGGUGGAUUCUGUUUAUUUUUUUAGCUCAUUUCCAGGGGUGGGAAUUUUUUUUUAAUAUGUGUCAUGAAUAAAGUUGUUUUUGAAA: 0.397
UGGCCCUGGUGGCAUGCGGGGAGGAAGAGGUGGCCUCAUGGAUCGUGGUGGUCACGGUGGAAUGUUCAGAGGUGGCCGUGGUGGAGACAG: 0.522
CAAGUCCUGUGCUACACAUCGUAUGUACCGAAUCGGGCCCGGGCCCGGGGCCCGGAAAGUAUUAUGUUACGCCGUUCGGAUCUGCACUUC: -0.973
UCCUGUGCUACACAUCGUAUGUACCGAAUCGGGAAAAAGGGUUUUUGGGUUUUUUUGGGAAAGUAUUAUGUUACGCCGUUCGGAUCUGCA: -1.65
CAGCAGUGAGUCUCUUCAGAAAACCCUUUUCUACAGUUAGGGUUGAGUUACUUCCUAUCAAGCCAGUACGUGCUAACAGGCUCAAUAUUC: -0.633
CACAGACAACACGCACCCACACAGACACAGAGGGAAGGGGUUGGGAUGGGGACAGGGUGCACAGCAGGGCGGGGUAGUACCCCAGCCCCU: 1.01
CUCAAGUCCUGUGCUACACAUCGUAUGUACCGAAUCGGUUGGGUUGGGGUUGGGAAAGUAUUAUGUUACGCCGUUCGGAUCUGCACUUCC: 0.259

Block 4 — target: CCNE1, cyclin fold, Cln2 fusion (human); technique: yeast growth competition, sequencing; matrix: yeast; setting: weak parent motif; baseline: not given; reading: higher = stronger binding; measurement: normalised enrichment score
Starting sequence: FZR1 docking peptide (human); QDYERRLLRQIVI
R5A L7A: 0.021
L8F: -0.0394
R5K: 0.0501
Y3A: 0.726
Q1A: 0.437
D2A: 0.611
L8A: 0.633
R6A: 0.38
I13A: 0.000512
V12A: 0.176

Block 5 — technique: RNA Bind-n-Seq; form: RNA; matrix: in vitro; concentration: not given; baseline: input RNA pool; reading: higher = stronger binding; measurement: bound/input enrichment
Target: RING finger protein unkempt homolog, zinc fingers 1-6, GST-SBP tag (UNK, Homo sapiens, UniProt Q9C0B0, residues 30-357)
UniProt Q9C0B0, sequence (30-357, looked up): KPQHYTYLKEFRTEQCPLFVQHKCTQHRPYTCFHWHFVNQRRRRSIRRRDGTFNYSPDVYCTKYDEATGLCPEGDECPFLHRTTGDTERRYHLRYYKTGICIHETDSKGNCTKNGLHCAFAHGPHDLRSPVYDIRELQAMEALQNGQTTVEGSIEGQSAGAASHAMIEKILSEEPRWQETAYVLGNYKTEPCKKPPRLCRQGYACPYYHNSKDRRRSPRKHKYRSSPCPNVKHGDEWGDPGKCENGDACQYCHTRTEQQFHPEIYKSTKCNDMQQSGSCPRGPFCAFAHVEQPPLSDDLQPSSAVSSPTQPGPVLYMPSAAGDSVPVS
Setting: RNA with constant flanks, human and mouse sites, ends assumed
All sequences stand within: GGGAGUUCUACAGUCCGACGAUC … CAACAGAGGAUUGAGCAUCA
UUUUAAAGAACAAAAUAAAAACCAGAGGCCUGUCUCCACUUUAAAUCUGUCCUGGACAGUCUUUAUCAUGCAAGCGGAAGGUGGCAUUGCCGGAAGCACGCCGUUAACUUACACUGCCAC: 0.163 ratio
UUAGAUCUCUGAGGCUCAGAAAAAGGAAAGGGUGUCUCAUCCCGCUUUCUCGCUUUUCGCUUUAGCCAUGGCGGAGACAGGGGCCGGGAUAAGUGAGACCGUCACUGAGACAACGGUUAC: 0.165 ratio
GACUGGUGCUGUACUCACAAAAAUCAUUUGGCCAUGUUAGAAGACACGUUUUGGGAAGAAGAAAUCUGGGAAUAUAAAUCUAAAAGAAAGCCCAAACCCGUACAUCCAAAUAAUUGUUCU: 0.223 ratio
AAUGAGAAUAAUAUUCUUGCAAAAAAGAAACCCUAUAAGUGUGAUAAAUGUAGAAAAGCCUUUAUUCAUAGAUCAUCGCUUACUAAACAUGAGAAAACACAUAAAGGAGAGGGAGCUUUC: 0.343 ratio
CUUAUUGUAGAUGGCAGAGGCAAAGCAACAAUUUCUAAUGAUGGGGCCACAAUUCUGAAACUUCUUGAUGUUGUCCAUCCUGCAGCAAAGACUUUGGUAGACAUUGCCAAAUCCCAAGAU: 0.206 ratio
AGUUAUGAGGCUGAGAUCUCCACUAGACCAUGCCUUGCAUUAGCUCCAGAUAGCCCAGAUAAUGAUCUCAGAGCUGGUCAGUUUGGAAUUUCUGCCAGAAAGCCAUUCACCACUCUGGGU: 4.13 ratio
GCUGCCAUGGCUGCAAGGCCCCAUUCCAUUGAUGGCAGGGUAGUUGAGCCAAAACGUGCUGUAGCAAGAGAGGAGUCUGGAAAACCAGGAGCCCAUGUGACUGUGAAGAAGCUGUUUGUU: 0.212 ratio
GGUGUUCCCUCUUUUUUUCCACGAGGGUGUUUUUGGCUGCAAUUGCAUGAAAUCCCAAUGGUGUAGACCAGUGGCGAUGGAUCUAGGAGUUUACCAACUGAGACAUUUUUCAAUUUCUUU: 0.629 ratio
GGCUGUUUCUCCACAUUUUGAUGACAUGCACAGUAAUACAGCAUCCACAAUCAAUUUCAUUAUCUCCCAAGUAGCCAGUGGUGACAUCAACACAAGCAUCCAAGCUCUGACACAGAUUGA: 0.504 ratio
AUUUGGUCAAGGCCAGAAAGCACCCAGGUACAGAACAUCCUGCGCCAGAGAACAGAGAAUAUAGAUAUUAAAAAGUAUUGUGUGCAGUACCUGGAGGAUGUAGGUUCUUUUGCAUACACU: 4.9 ratio
UGCCGAGCUGCGUCACGUCAUGACGAACCUGGGGGAGAAGCUGACAGAUGAGGAAGUGGAUGAGAUGAUCCGAGAGGCCGACAUUGAUGGAGAUGGCCAGGUCAAUUAUGAAGAGUUUGU: 0.274 ratio

A few entries again (block 5):
AAUGAGAAUAAUAUUCUUGCAAAAAAGAAACCCUAUAAGUGUGAUAAAUGUAGAAAAGCCUUUAUUCAUAGAUCAUCGCUUACUAAACAUGAGAAAACACAUAAAGGAGAGGGAGCUUUC: 0.343 ratio
CUUAUUGUAGAUGGCAGAGGCAAAGCAACAAUUUCUAAUGAUGGGGCCACAAUUCUGAAACUUCUUGAUGUUGUCCAUCCUGCAGCAAAGACUUUGGUAGACAUUGCCAAAUCCCAAGAU: 0.206 ratio
AGUUAUGAGGCUGAGAUCUCCACUAGACCAUGCCUUGCAUUAGCUCCAGAUAGCCCAGAUAAUGAUCUCAGAGCUGGUCAGUUUGGAAUUUCUGCCAGAAAGCCAUUCACCACUCUGGGU: 4.13 ratio
GCUGCCAUGGCUGCAAGGCCCCAUUCCAUUGAUGGCAGGGUAGUUGAGCCAAAACGUGCUGUAGCAAGAGAGGAGUCUGGAAAACCAGGAGCCCAUGUGACUGUGAAGAAGCUGUUUGUU: 0.212 ratio
GGUGUUCCCUCUUUUUUUCCACGAGGGUGUUUUUGGCUGCAAUUGCAUGAAAUCCCAAUGGUGUAGACCAGUGGCGAUGGAUCUAGGAGUUUACCAACUGAGACAUUUUUCAAUUUCUUU: 0.629 ratio
GGCUGUUUCUCCACAUUUUGAUGACAUGCACAGUAAUACAGCAUCCACAAUCAAUUUCAUUAUCUCCCAAGUAGCCAGUGGUGACAUCAACACAAGCAUCCAAGCUCUGACACAGAUUGA: 0.504 ratio
AUUUGGUCAAGGCCAGAAAGCACCCAGGUACAGAACAUCCUGCGCCAGAGAACAGAGAAUAUAGAUAUUAAAAAGUAUUGUGUGCAGUACCUGGAGGAUGUAGGUUCUUUUGCAUACACU: 4.9 ratio
UGCCGAGCUGCGUCACGUCAUGACGAACCUGGGGGAGAAGCUGACAGAUGAGGAAGUGGAUGAGAUGAUCCGAGAGGCCGACAUUGAUGGAGAUGGCCAGGUCAAUUAUGAAGAGUUUGU: 0.274 ratio
